# Measured values collected from several papers.
# Parts stem from different laboratories: compare values within a part only. Changes are numbered by the printed parent chain.

# Series 1
# Target: Centromere-binding protein 1, full length, N-terminal tag (CBF1, Saccharomyces cerevisiae, UniProt P17106, residues 1-351)
# UniProt P17106, sequence (whole entry, looked up): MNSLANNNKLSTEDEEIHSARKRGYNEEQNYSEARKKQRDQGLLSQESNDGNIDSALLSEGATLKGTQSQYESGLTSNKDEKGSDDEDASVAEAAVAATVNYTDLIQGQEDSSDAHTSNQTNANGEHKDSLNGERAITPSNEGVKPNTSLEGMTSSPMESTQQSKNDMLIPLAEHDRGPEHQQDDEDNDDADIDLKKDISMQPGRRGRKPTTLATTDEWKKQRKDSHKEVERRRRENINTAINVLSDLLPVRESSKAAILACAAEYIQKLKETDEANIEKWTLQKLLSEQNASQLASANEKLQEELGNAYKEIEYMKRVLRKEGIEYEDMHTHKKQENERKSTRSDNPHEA
# Technique: protein-binding microarray
# Molecule type: double-stranded DNA, one strand shown
# Matrix: in vitro
# Concentration: 0.8 µM
# Setting: whole 60-bp probe, no competitor
# Reading: higher = stronger binding
Sequence,fluorescence intensity [a.u.]
GAAATTAAAGTAATCCATGTGGTAAATAAAATCTAGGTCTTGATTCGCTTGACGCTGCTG,625
CTACCATGCTGTTTCCATCACGTGCATGTCACGTTCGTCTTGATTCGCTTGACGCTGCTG,11000
CTAAAAAGCTCACATGACACGCTTGTTTTGGAATTCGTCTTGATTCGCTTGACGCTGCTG,2640
GAATTGTACGCAGGTCCTGATGTACTGTATGATTAGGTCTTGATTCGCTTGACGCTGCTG,523
CTATTCCCCTAGAATCCCACGTGCACCCATACCTTCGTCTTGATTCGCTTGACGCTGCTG,4760
CTATCTTCTACAGCCCTGATGCAAGTGGAAGTTTTCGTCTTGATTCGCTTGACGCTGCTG,511
CTATGGTCGTCAGGTATCACGAGCGGGTAACAGTTCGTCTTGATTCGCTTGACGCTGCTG,952
CCTAACTACTATAGGAGCACGTGATAGCTTCGTACAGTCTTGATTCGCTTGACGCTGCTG,14900
GAAATTGTATGAGGTAACATCACTTCAACGAAATAGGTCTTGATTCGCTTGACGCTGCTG,540
GAAAAGATTGTACGTAAGGTGACAAGCTATTTTTAGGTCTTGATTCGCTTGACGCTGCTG,560
CTACAGCAATTGCACCACATGCATGTCACATATTTCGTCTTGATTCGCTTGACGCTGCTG,649
GAACGAGTGATGCGACACGTGATAGGTAGTAACTAGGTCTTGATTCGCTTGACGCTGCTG,9200
GAATCCGGTGACTTTCAGGTCACGTGTTTTCCATAGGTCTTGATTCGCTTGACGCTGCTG,23700
CTAGCTTGTGTTGATCACGTCTTACGGGAAATATTCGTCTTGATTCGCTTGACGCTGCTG,844
GAAAGACAGACCCAATTGGTGATGAAGAACAATTAGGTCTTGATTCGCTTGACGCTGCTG,491

# Series 2
# Target: Interferon regulatory factor 5, full length, phosphomimetic (IRF5, Homo sapiens, UniProt Q13568-2, residues 1-514, S451D/S453D/S456D/S462D)
# Technique: protein-binding microarray
# Molecule type: double-stranded DNA, one strand shown
# Matrix: in vitro
# Concentration: 940 nM top
# Setting: 60-bp whole probe
# Added: salmon DNA 0.4 mg/ml
# Relative to: random background probes
# Reading: higher = stronger binding
# Shared flanks, not repeated: GCCTAGCAC … GTCTTGATTCGCTTGACGCTGCTG
Sequence,fitted relative affinity [z-score]
GACGGTTTCCTTTTCCTTACGTGCTAG,2.04
AGTTCTCTAGAAATTCCCACGGTGCTA,0.606
GACGGTTTCCGTTCCCTGACGTGCTAG,2.3
TTAGGTTTGGACTTTCGGTTAGTGCTA,2.59
GACGGTTTCGACTATGGGGACGTGCTA,7.7
TTAGGACGGGGTATCGGTTAGTGCTAG,3.85
TTAGAACTGGGGTATCGATTGGTGCTA,2.63
GATGATTTCGGGTTTCGAGACGTGCTA,2.44
GACGGTCTCCTTTTCCTGGCGTGCTAG,1.21
TTTCTTTTCATTACTGCATTGTGCTAG,3.71
CCCTATTTAAGGCATCTGCAGGTGCTA,0.0568
TTAGATATCAGTTTCGATTAGTGCTAG,8.18
TTAGATCTCAGTATCGTTTAGTGCTAG,2.72
TCACTTCTCTTTTTGCTACTGTGCTAG,1.72
GGTCTTCTGGGCTGTTTGGTCGTGCTA,-0.193
TTAGATTTCACTTTCGATTAGTGCTAG,5.82
GACGGTCTCCTACTGTTGACGTGCTAG,0.233

# Series 3
# Target: CCNB3, cyclin fold, Cln2 fusion (human)
# Technique: yeast growth competition, sequencing
# Matrix: yeast
# Setting: weak parent motif
# Relative to: not given
# Reading: higher = stronger binding
# Parent: RBL1 docking peptide (human); GSAKRRLFGEDPP
Change,normalised enrichment score
L7C,-0.0572
R6G,0.0436
P13Q,0.377
A3S,-0.221
D11G,0.548
S2G,0.581
D11W,0.401
R5Y,0.653
R6Y,0.694
K4H,0.0655
F8V,0.146
L7D,0.022
G9M,1.05
L7V,0.337
K4F,0.459

# Series 4
# Target: RNA binding protein fox-1 homolog 2, RRM domain, GST-SBP tag (RBFOX2, Homo sapiens, UniProt O43251-10, residues 100-194)
# Technique: RNA Bind-n-Seq
# Molecule type: RNA
# Matrix: in vitro
# Concentration: 365 nM
# Setting: natural RNA segment, single round, ends assumed
# Relative to: no-protein control
# Reading: higher = stronger binding
# Construct (chain): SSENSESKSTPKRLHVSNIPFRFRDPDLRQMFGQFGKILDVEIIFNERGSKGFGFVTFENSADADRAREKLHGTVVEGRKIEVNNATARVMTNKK
Sequence,RBNS enrichment (R)
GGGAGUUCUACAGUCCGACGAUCAUAGAUAGGCCCAGUGUCUUGGCAUUCUUGUAGAAUCUUCAGGUGGGAAUGUGUGAUGCCUUUUCAGGCAAUAGGAAAGUGCAUGAGGAGAGUUUUGAAUGUGCAUAUGCUGGAAUUCUCGGGUGCCAA,19.2
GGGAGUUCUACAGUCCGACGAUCCUUGUAUCCUUAAUCCUCAGUAACAGAAUUAGUCACACAGGGGGGAACUGCCAGCAGGGUUGCUUAGGAAAGGAAAUGGACCUUCUCUUCUCUUCUCUUCUUUGAGACAGUGGAAUUCUCGGGUGCCAA,0.442
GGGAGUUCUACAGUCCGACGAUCUUGUGACCCUCAUGUUUCCUGUAAGUCUGUUUCAUGGUAGGGUUCAUACCUGCCUCAGCCUGACAGGAGUAGGUUUUCCGCAACCCACUGUGCUGAGACAGUUGAUGUGAUGGAAUUCUCGGGUGCCAA,0.401
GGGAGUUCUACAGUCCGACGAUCAAUUUGUAACUAAUUUUGUACGUAUGAAUGAAAUCUUUGACCUCUGUCGAGGUUUGCAAAGACUGACUUCAAACUACUGUACGUUUUUUUCAAGUGCUAAAAAAAAAAUUUGGAAUUCUCGGGUGCCAA,0.488
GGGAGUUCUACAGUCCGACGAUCGUUAUUUAAACAGCACUAGUACUGUACACUGGUUUUCCCUUGUGUUUGCUGUUGCACACUGAUUGCUAAGGGUGCAUCCAUUCUAAGCAUUGAAUACUCCAUCCCCUUCCUGGAAUUCUCGGGUGCCAA,0.754
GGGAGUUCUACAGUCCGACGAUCGGCUCUGAGGGCGCUCCCUCCUCUCAGCCGGGCAGCCUGGCCUCUCCUGCCCAGACCUGCGGUCCCAGCAUCCCCCAGAGCCAGGGAACAGGCCCAGCGGGAGGGGGUUUUGGAAUUCUCGGGUGCCAA,0.343
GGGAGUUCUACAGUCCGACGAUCGGCAUAAUUUUACACCAUUUUACCAAACAUACUGAGAACGAAAACUUCAAGGAUGAUGUUAGAAAAAUGUGAUUUAACUAGAACUUGUUUGAUGUUAGCAAAUCAUGGAAUGGAAUUCUCGGGUGCCAA,0.329
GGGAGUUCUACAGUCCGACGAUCAGGAGAGUAAAUAACUGUGAACAAGAGGCUCUGCCCUUAGGUCUUUGUGGCUGUUUAAGUCACCAACAAUAGAGUCAGGGUAAAGAAUAAAAACACUUUCAUAGCCUCAUUGGAAUUCUCGGGUGCCAA,0.344
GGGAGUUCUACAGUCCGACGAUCCAAGGCAAGGAAGGGUGUUGCAGAGAGGGAACAGCAUAUGCAAAGGCGUAUCAGUUCAUGGCAUCACAUCUUUCACUGGGGAAGCCAGUUUCCACAGGCAGCAUCCCAAGUGGAAUUCUCGGGUGCCAA,0.87
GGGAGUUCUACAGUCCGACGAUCUUGGAGUGUAACCGGGGAGGGAAAUUAUAGCAUGCUUGCAGACAGACCUGCUCUAGCGAGAGCUGAGCAUGUGUCCUCCACUAGAUGAGGCUGAGUCCAGCUGUUCUUUAUGGAAUUCUCGGGUGCCAA,1.57
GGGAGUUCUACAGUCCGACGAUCACCUCCUGCCAAAGAGAGCUUUUGCUGAGCCGGGACACUUGCCUCUCCACACAGUGGCCCCAGCCGUGACCACCCUGUACCAGUCCCUGCUGUGUCCUGUCUACCUGUGUUGGAAUUCUCGGGUGCCAA,0.253
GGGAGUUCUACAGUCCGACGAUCCCCAGGCAGGUCAUCUUUUCUGGGAGAUGCUUCCCCUGCCAUCCCCAAAUAGCUAGGAUCACACUCCAAGUAUGGGCAGUGAUGGCGCUCUGGGGGCCACAGUGGGCUAUUGGAAUUCUCGGGUGCCAA,0.375

# Series 5
# Target: ABI1, truncated, D143A, DHFR fusion (Arabidopsis thaliana)
# Technique: DHFR PCA, deep sequencing
# Matrix: yeast
# Setting: methotrexate growth selection, single substitutions
# Added: (+)-ABA 710 µM
# Relative to: wild-type fitted maximum
# Reading: higher = stronger binding
# Parent: PYL1, truncated, DHFR fusion (Arabidopsis thaliana); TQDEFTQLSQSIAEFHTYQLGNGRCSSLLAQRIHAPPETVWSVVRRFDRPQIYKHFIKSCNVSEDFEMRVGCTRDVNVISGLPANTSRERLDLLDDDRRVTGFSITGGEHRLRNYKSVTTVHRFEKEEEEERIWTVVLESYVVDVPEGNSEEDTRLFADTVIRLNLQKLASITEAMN; partner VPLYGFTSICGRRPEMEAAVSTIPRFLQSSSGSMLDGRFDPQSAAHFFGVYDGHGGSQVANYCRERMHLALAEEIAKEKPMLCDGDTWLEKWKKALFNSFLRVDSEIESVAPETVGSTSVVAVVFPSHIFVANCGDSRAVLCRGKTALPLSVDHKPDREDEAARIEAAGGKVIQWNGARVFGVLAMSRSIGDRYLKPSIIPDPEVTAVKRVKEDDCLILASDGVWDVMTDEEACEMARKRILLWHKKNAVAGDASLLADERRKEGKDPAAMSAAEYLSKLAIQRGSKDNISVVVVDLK
Change,relative binding score
V40M,-30%
P36H,99.5%
E109T,108%
S26L,69.3%
I12N,69.2%
G23C,93.3%
D3K,103%
E129K,107%
Q31E,85.3%
W134M,111%

# A few entries again (series 3):
Change,normalised enrichment score
A3S,-0.221
D11G,0.548
S2G,0.581
D11W,0.401
R5Y,0.653
R6Y,0.694
K4H,0.0655
F8V,0.146
